Measured values collected from several papers.
Protocols differ between the studies behind these lines. ± marks the error that the study gave.

Substance = CCOC(=O)[C@H](C)C[C@@H](Cc1ccc(-c2ccccc2)cc1)NC(=O)CCC(=O)O; system = male human, plasma; conditions = oral, 400 mg, day 7, alone, adjusted geometric mean; endpoint = Cmax at steady state; value = 2310 ng/mL
Substance = Oc1ncnc2[nH]ncc12; system = human, male, plasma; conditions = oral, 10 mg, added: allopurinol 300 mg; how to read = baseline: combination over alone; endpoint = Cmax ratio; value = 133%
Substance = CC[C@@H]1C(=O)N(C)c2cnc(Nc3ccc(C(=O)N[C@H]4CC[C@H](N5CCN(CC6CC6)CC5)CC4)cc3OC)nc2N1C(C)C; system = human, plasma; conditions = intravenous infusion, 50 mg over 2 h, first infusion; endpoint = Cmax geometric mean; value = 106 ng/mL
Substance = COc1cccc(-c2ccc(NC(=O)C3=C(C(=O)O)CCC3)c(F)c2)c1; system = male healthy human, plasma; conditions = oral, 50 mg daily, day 13-14, pre-dosed; how to read = baseline: day 0-1; endpoint = Cmax accumulation ratio; value = 1.48
Substance = CNCc1ccc(-c2[nH]c3cc(F)cc4c3c2CCNC4=O)cc1; system = human patients, plasma; conditions = oral, 40 mg once daily, day 15, steady state, arithmetic mean; endpoint = Cmax; value = 138 ng/mL
Substance = COC(=O)c1ccc2c(c1)NC(=O)/C2=C(\Nc1ccc(N(C)C(=O)CN2CCN(C)CC2)cc1)c1ccccc1; system = human moderate liver impairment, plasma; conditions = oral, 200 mg twice daily, geometric mean; endpoint = Cmax steady state; value = 142 ng/mL
Substance = coproporphyrin I; assay = refers to: compound endogenous; system = human, plasma; conditions = added: rosuvastatin and finerenone; how to read = baseline: with over without finerenone; endpoint = Cmax ratio; value = 101%
Substance = CC(C)(Sc1ccncc1-c1ccc(C#N)c2ccccc12)C(=O)O; system = human, male, plasma; conditions = oral, 10 mg, added: allopurinol 300 mg; how to read = baseline: combination over alone; endpoint = Cmax ratio; value = 98.7%
Substance = O=C(NC[C@H]1CN(c2ccc(N3CCOCC3=O)cc2)C(=O)O1)c1ccc(Cl)s1; system = human, moderate renal impairment, plasma; conditions = oral, 10 mg, added: erythromycin at steady state; how to read = baseline: same subjects, compound alone; endpoint = Cmax increase; value = ~21%
Substance = CC(C)(C)OC[C@@H]1C(=O)NCCN1C(=O)C[C@H](N)Cc1cc(F)c(F)cc1F; system = human, plasma; conditions = oral, 5 mg once daily, added: glimepiride 4 mg; endpoint = Cmax steady state; value = 6.9 ± 1.5 ng/mL
Substance = CC(C)c1nc(N(C)S(C)(=O)=O)nc(-c2ccc(F)cc2)c1/C=C/[C@@H](O)C[C@@H](O)CC(=O)O; system = human, plasma; conditions = oral, dose not given, added: finerenone 40 mg steady state simultaneous; how to read = baseline: compound alone; endpoint = Cmax increase; value = 11%
Substance = COc1ccc2cc3[n+](cc2c1OC)CCc1cc2c(cc1-3)OCO2; system = human; conditions = oral, 29.8 mg every 8 h; endpoint = Cmax at steady state; value = ~0.59 nM
Substance = CNC(=O)c1ccc(-c2cnc3ncc(Cc4ccc5ncccc5c4)n3n2)cc1F; system = human, severe hepatic impairment (Child-Pugh C), plasma; conditions = oral, 200 mg single dose; endpoint = Cmax (geometric mean); value = 1770 ng/mL
Substance = CCCCC(=O)N(Cc1ccc(-c2ccccc2-c2nnn[nH]2)cc1)[C@H](C(=O)O)C(C)C; system = male human, plasma; conditions = oral, dose not given, day 8, adjusted geometric mean, added: sildenafil; endpoint = Cmax at steady state; value = 3040 ng/mL
Substance = CCCC(CCC)C(=O)O; assay = regression tree, refers to: chills; system = human, plasma; conditions = intravenous; endpoint = Cmax breakpoint; value = > 738000 ng/mL
Substance = Cc1[nH]c(/C=C2\C(=O)Nc3ccccc32)c(C)c1CCC(=O)O; system = human, Japanese patients, plasma; conditions = oral, dose not given, days 8 and 29, any dose level; how to read = baseline: first dose day 1; endpoint = Cmax and AUC(0-t) decrease; value = ~2 fold
Substance = CCn1c(C(=O)c2cc(C)cc(C#N)c2)c(C(C)C)c(=O)[nH]c1=O; system = healthy humans, plasma; conditions = oral, 75 to 600 mg once daily, 7 days, range of dose-group means; endpoint = Cmax at steady state; value = 385 to 1100 ng/mL
Substance = CCOc1c([C@H](C)n2nc(C)c3c(N)ncnc32)cc(Cl)c(F)c1[C@@H]1CNC(=O)C1; system = healthy fasted humans, plasma; conditions = oral, 20 mg; endpoint = Cmax geometric mean; value = 1630 nM
Substance = CC[C@H](C)C(=O)O[C@H]1C[C@H](O)C=C2C=C[C@H](C)[C@H](CC[C@@H](O)C[C@@H](O)CC(=O)O)[C@H]21; system = human fed, plasma; conditions = oral, 20 mg single dose, added: ziritaxestat 600 mg once daily; how to read = baseline: with over without ziritaxestat; endpoint = Cmax ratio; value = 2.4
Substance = COCCCCn1c(C(=O)N(CC(C)C)[C@@H]2CNC[C@H](C(=O)N3CCOCC3)C2)nc2ccccc21; system = non-elderly human, plasma; conditions = oral, 80 mg once daily; how to read = baseline: later day over first day; endpoint = Cmax accumulation ratio; value = 105%
Substance = COC(=O)c1ccc2c(c1)NC(=O)/C2=C(\Nc1ccc(N(C)C(=O)CN2CCN(C)CC2)cc1)c1ccccc1; system = human, healthy, plasma; conditions = oral, 150 mg, added: rifampicin 600 mg; how to read = baseline: alone; endpoint = Cmax ratio; value = 59.8%
Substance = CN(C)C/C=C/C(=O)Nc1cc2c(Nc3ccc(F)c(Cl)c3)ncnc2cc1O[C@H]1CCOC1; system = human, plasma; conditions = oral, 40 mg once daily, day 27, geometric mean; endpoint = Cmax at steady state; value = 29 ng/mL
Substance = CO[C@H]1C[C@@H]2CC[C@@H](C)[C@@](O)(O2)C(=O)C(=O)N2CCCC[C@H]2C(=O)O[C@H]([C@H](C)C[C@@H]2CC[C@@H](OCCO)[C@H](OC)C2)CC(=O)[C@H](C)/C=C(\C)[C@@H](O)[C@@H](OC)C(=O)[C@H](C)C[C@H](C)/C=C/C=C/C=C/1C; system = healthy human adults, blood; conditions = added: ritonavir-containing 3D regimen; how to read = baseline: with over without regimen; endpoint = Cmax ratio; value = 4.74

A few entries again:
Substance = CCCCC(=O)N(Cc1ccc(-c2ccccc2-c2nnn[nH]2)cc1)[C@H](C(=O)O)C(C)C; system = male human, plasma; conditions = oral, dose not given, day 8, adjusted geometric mean, added: sildenafil; endpoint = Cmax at steady state; value = 3040 ng/mL
Substance = CN(C)C/C=C/C(=O)Nc1cc2c(Nc3ccc(F)c(Cl)c3)ncnc2cc1O[C@H]1CCOC1; system = human, plasma; conditions = oral, 40 mg once daily, day 27, geometric mean; endpoint = Cmax at steady state; value = 29 ng/mL
